Published values of several laboratories.
Protocols differ between the studies behind these lines. Numbers after ± are the reported error.

SMILES	assay	system	setting	CL/F [mL/min/kg]
CCN(CC)Cc1cc(Nc2ccnc3cc(Cl)ccc23)ccc1O		rat, Wistar, male, plasma	oral, 60 mg/kg, with: myricetin 5 mg/kg iv	168 ± 22.7
C[C@@H]1O[C@@H](OC[C@H]2O[C@@H](Oc3c(-c4ccc(O)c(O)c4)oc4cc(O)cc(O)c4c3=O)[C@H](O)[C@@H](O)[C@@H]2O)[C@H](O)[C@H](O)[C@H]1O	UPLC-MS/MS	Wistar rat, microcirculation dysfunction model, plasma	oral, 100 mg/kg Salvia miltiorrhiza stem-leaf extract FT	268 ± 137
O=C(O)C[C@H](O)C[C@H](O)/C=C/c1c(C2CC2)nc2ccccc2c1-c1ccc(F)cc1		male Sprague-Dawley rat (wild type)	oral, 5 mg/kg	42.3 ± 9.55
CC(C)=CCC[C@](C)(O[C@@H]1O[C@H](CO)[C@@H](O)[C@H](O)[C@H]1O)[C@H]1CC[C@]2(C)[C@@H]1[C@H](O)C[C@@H]1[C@@]3(C)CC[C@H](O)C(C)(C)[C@@H]3[C@@H](O[C@@H]3O[C@H](CO)[C@@H](O)[C@H](O)[C@H]3O[C@@H]3O[C@@H](C)[C@H](O)[C@@H](O)[C@H]3O)C[C@]12C		Sprague Dawley rat, male, plasma	oral, 45 mg/kg, in frozen ginseng extract	61.7 ± 25
CCCC[C@H](NC(C)=O)C(=O)N[C@H]1CCC(=O)NC[C@@H](C(=O)N[C@@H](Cc2c[nH]c3ccccc23)C(N)=O)NC(=O)[C@H](CCCNC(=N)N)NC(=O)[C@@H](Cc2ccccc2)NC(=O)[C@H](Cc2c[nH]cn2)NC1=O		CD Sprague Dawley rat, male, plasma	subcutaneous, 5.0 mg/kg daily, day 1	18.5
O=C(O)/C=C/c1ccc(O)c(O)c1	UPLC-MS/MS	Wistar rat, microcirculation dysfunction model, plasma	oral, 100 mg/kg Salvia miltiorrhiza stem-leaf extract FT	6.17 ± 3
N#C[C@]1(CO)O[C@@H](n2cnc3c(=O)[nH]c(N)nc32)C[C@@H]1O		male Sprague-Dawley rat, plasma	oral, 1 mg/kg, with: entecavir 1 mg/kg	128 ± 45.5
O=C(/C=C/c1ccc(O)c2c1[C@H](C(=O)O)[C@@H](c1ccc(O)c(O)c1)O2)O[C@H](Cc1ccc(O)c(O)c1)C(=O)O	UPLC-MS/MS	Wistar rat, microcirculation dysfunction model, plasma	oral, 100 mg/kg Salvia miltiorrhiza stem-leaf extract FS	98.3 ± 19.7
CC(C)=CCC[C@](C)(O[C@@H]1O[C@H](CO)[C@@H](O)[C@H](O)[C@H]1O)[C@H]1CC[C@]2(C)[C@@H]1[C@H](O)C[C@@H]1[C@@]3(C)CC[C@H](O[C@@H]4O[C@H](CO)[C@@H](O)[C@H](O)[C@H]4O[C@@H]4O[C@H](CO)[C@@H](O)[C@H](O)[C@H]4O)C(C)(C)[C@@H]3CC[C@]12C		Sprague Dawley rat, male, plasma	oral, 42 mg/kg, in frozen ginseng extract	18.3 ± 8.33
O=C(/C=C/c1ccc(O)c(O)c1/C=C/c1ccc(O)c(O)c1)O[C@H](Cc1ccc(O)c(O)c1)C(=O)O	UPLC-MS/MS	Wistar rat, microcirculation dysfunction model, plasma	oral, 100 mg/kg Salvia miltiorrhiza stem-leaf extract FS	40.8 ± 19.7
C=C1[C@H](CO)[C@@H](O)C[C@@H]1n1cnc2c(=O)[nH]c(N)nc21		male Sprague-Dawley rat, plasma	oral, 1 mg/kg, with: CdG 1 mg/kg	121 ± 17.7
CC(C)=CCC[C@](C)(O[C@@H]1O[C@H](CO[C@@H]2O[C@H](CO)[C@@H](O)[C@H](O)[C@H]2O)[C@@H](O)[C@H](O)[C@H]1O)[C@H]1CC[C@]2(C)[C@@H]1[C@H](O)C[C@@H]1[C@@]3(C)CC[C@H](O[C@@H]4O[C@H](CO)[C@@H](O)[C@H](O)[C@H]4O[C@@H]4O[C@H](CO)[C@@H](O)[C@H](O)[C@H]4O)C(C)(C)[C@@H]3CC[C@]12C		Sprague Dawley rat, male, plasma	oral, 86 mg/kg, in red ginseng extract	3.33 ± 0.667

Excerpt of the above:
SMILES	assay	system	setting	CL/F [mL/min/kg]
C=C1[C@H](CO)[C@@H](O)C[C@@H]1n1cnc2c(=O)[nH]c(N)nc21		male Sprague-Dawley rat, plasma	oral, 1 mg/kg, with: CdG 1 mg/kg	121 ± 17.7
